Published values of several laboratories.
Every numbered part comes from another study and shows a few of its results, in no order.

Series 1 — method: RNA Bind-n-Seq; molecule type: RNA; medium: in vitro; tested at: 365 nM; baseline: no-protein control; reading: higher = stronger binding
Target: RNA binding protein fox-1 homolog 2, RRM domain, GST-SBP tag (RBFOX2, Homo sapiens, UniProt O43251-10, residues 100-194)
Setting: natural RNA segment, single round, ends assumed
Construct (chain): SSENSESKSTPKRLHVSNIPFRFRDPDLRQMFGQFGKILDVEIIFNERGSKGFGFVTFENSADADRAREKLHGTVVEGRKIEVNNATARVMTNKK
`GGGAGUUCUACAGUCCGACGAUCGACGGGCACAGACUUGCGUCAUCUCGUUUCCACAGUUGACGUUUUAUAUUACUUUCUCAAAUUAAGUUACCAAAACAAACUGAAGAGCUGAAGCAGGUCUUCCAGACCCUUGGAAUUCUCGGGUGCCAA`: “RBNS enrichment (R)” 0.303.
Under “RBNS enrichment (R)”, `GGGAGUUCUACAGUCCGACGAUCUCAUCAAUUUUUCUGACUUUUUAAAUCAUUAUCAUUAUUAUUUUUAAUUAAAAAAAUGCCUGUAUGCCUUUUUUUGGUCGGAUUGUAAAUAAAUAUACCAUUGUCCUACUUGGAAUUCUCGGGUGCCAA` is recorded as 0.743.
For `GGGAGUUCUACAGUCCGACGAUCGCUUUAUUUUUGUUUUAAUCUUUUGUUGCCAGUGAUGAUUUUCCUAUUCUGCAAAUAGUGUAUUUCCUGGAUUACACAUAGUAUGGUUUCCUGAAGUAUUCUGAUAAAUGUGGAAUUCUCGGGUGCCAA`, “RBNS enrichment (R)” read 0.524.
Under “RBNS enrichment (R)”, `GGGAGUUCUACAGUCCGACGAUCUAGUUAUUGUAUUGCUACAAUUUAAAUAUUAAAACAAAUAAGAGCUUUCUCAACAAAUUAGUCCAUCUCAUUGAUGUACCACAGAAAUCCAAAGCUUUGCUGUCAUCACAUGGAAUUCUCGGGUGCCAA` is recorded as 0.503.
Under “RBNS enrichment (R)”, `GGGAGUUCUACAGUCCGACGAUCACUCGCAGGCAGGCCUGAGAGCCCCAGCCACUCUUCCGGCCCUCGGCGGACCUGCAGAUGACCUGGAGUUCCUGAUUCAGGUCCCUGUCUGCAGCCCGGGCUGCCUGGGCUGGAAUUCUCGGGUGCCAA` is recorded as 0.235.
Under “RBNS enrichment (R)”, `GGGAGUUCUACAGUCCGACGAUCUGUCAACACAAAGACAUGGAAGAUUAGAGGUUUGUCAACACAAAGACACAGGAAGAAUGGGCUGCAGAAGAUUUAGAUGUUUUCCAUUUGGGCACAUUUUACUUAGCUGGUGGAAUUCUCGGGUGCCAA` is recorded as 0.328.
`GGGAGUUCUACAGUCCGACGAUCGCCUCGCCUUGUGUUACGAUAUUUCGUUUGGUCUUAGGUCUUCCUGUGGCUCCCUCUCUCCUGGACUGGUUAUCUUGUUAUUAUUGUUAAUAAUAAUUAUUAUUAUUAUUUGGAAUUCUCGGGUGCCAA` — result for “RBNS enrichment (R)”: 1.06.
`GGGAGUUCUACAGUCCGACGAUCGAAAAUUGCAGGCUUGGUGCAGAGCGCUCUGUCAUCUUCACCCUGGGAUGUAGGAUUACCUAGCUAUGGUAAAGGAUUGCCACAGCAAACUGUGACACUGUGUAAUGAGCUGGAAUUCUCGGGUGCCAA` — result for “RBNS enrichment (R)”: 1.16.

Series 2 — method: RNA Bind-n-Seq; molecule type: RNA; medium: in vitro; tested at: not given; setting: RNA with constant flanks, ends assumed; baseline: input RNA pool; reading: higher = stronger binding
Target: RING finger protein unkempt homolog, zinc fingers 1-6, GST-SBP tag (UNK, Homo sapiens, UniProt Q9C0B0, residues 30-357)
Sequence of UniProt Q9C0B0 (30-357, looked up): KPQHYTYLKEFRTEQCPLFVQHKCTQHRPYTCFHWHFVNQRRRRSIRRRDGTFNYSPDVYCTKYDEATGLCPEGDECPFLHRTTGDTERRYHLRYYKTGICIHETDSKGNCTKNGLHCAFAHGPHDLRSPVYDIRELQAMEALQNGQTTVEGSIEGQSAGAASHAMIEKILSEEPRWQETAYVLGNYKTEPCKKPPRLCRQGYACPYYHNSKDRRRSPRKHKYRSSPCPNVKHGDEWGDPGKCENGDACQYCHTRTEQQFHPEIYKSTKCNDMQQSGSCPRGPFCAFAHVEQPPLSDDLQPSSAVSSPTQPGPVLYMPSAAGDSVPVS
With `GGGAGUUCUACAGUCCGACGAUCGCACUUCUCAAAUACUGGCCAAAGACUCACAGUCCAAAAGAAGUAAUGUUCUUAAAUGAAUCCGAAGAAAUUUUAGAUGUAAUUGAACCAUCAGAGUUUGUGAAGAUCAUGGAGCCUCUUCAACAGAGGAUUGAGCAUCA` the bound/input enrichment was 0.286 ratio.
With `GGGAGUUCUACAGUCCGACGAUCUCAGGGGGCACACUGAGUGGUGGUAUUCUCUCCAGCGGCAAGGGAAAGUACAGCCGGUCCGAAGUUCAAGCUGAUGUCCAAAAGGAAAUUUUCCCCAAAGACACAGCCAGUCUUGGUGCACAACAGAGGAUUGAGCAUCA` the bound/input enrichment was 0.264 ratio.
The bound/input enrichment of `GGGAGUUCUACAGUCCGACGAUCCCUACUGUAAACAACUCAGGGCAGUAUUCUCGAUAUCCUUACAGUAACCUAAAUCAGGGAUCCGUUAACAGUACAGGGAUGAAUCAAAAUUUAGGCCUUACAAACAGUACUCCAAUGAAUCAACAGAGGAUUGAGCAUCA` is reported as 0.478 ratio.
For `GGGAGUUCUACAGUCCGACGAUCAUGGCUUCAGAAGAGCUACAGAAAGAUCUAGAAGAGGUAAAGGUGUUGCUGGAAAAGGCUACCCGGAAAAGAGUACGUGAUGCCCUUACAGCUGAAAAAUCCAAGAUUGAGACAGAAAUCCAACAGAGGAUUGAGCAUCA`, the bound/input enrichment was 0.26 ratio.
For `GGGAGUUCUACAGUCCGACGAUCGAACUGUUGAGUUCUUAUGAUGUUGAUAUUAAUCAGAUCAUAAAUACCAUAUCUGAAUGGGCCGUUAUGAUUAAGACCAGAGGUGUUAGGCGACCGGAGUUUCAGCCUCUACUAACUGAGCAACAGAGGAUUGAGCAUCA`, the bound/input enrichment was 0.144 ratio.
`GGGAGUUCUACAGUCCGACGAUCCCAUUGUACCCUGCUGUAUAAUAAACAAUCUUAGACAUUUAUCAACUGUUGAUACAAAUGUCCGUCCCUAACCACUUUUUAUAUAUGUUUUAAAUUUUUGAAAUUCAAGUGUACCUGCCACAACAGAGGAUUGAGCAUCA` gave a bound/input enrichment of 11.5 ratio.

Series 3 — method: RNA Bind-n-Seq; molecule type: RNA; medium: in vitro; tested at: 200 nM; setting: whole 134-nt RNA, ends assumed; added: 150 mM KCl; baseline: input library; reading: higher = stronger binding
Target: Ras GTPase-activating protein-binding protein 1, full length (G3BP1, Homo sapiens, UniProt Q13283)
Sequence of UniProt Q13283 (whole entry, looked up): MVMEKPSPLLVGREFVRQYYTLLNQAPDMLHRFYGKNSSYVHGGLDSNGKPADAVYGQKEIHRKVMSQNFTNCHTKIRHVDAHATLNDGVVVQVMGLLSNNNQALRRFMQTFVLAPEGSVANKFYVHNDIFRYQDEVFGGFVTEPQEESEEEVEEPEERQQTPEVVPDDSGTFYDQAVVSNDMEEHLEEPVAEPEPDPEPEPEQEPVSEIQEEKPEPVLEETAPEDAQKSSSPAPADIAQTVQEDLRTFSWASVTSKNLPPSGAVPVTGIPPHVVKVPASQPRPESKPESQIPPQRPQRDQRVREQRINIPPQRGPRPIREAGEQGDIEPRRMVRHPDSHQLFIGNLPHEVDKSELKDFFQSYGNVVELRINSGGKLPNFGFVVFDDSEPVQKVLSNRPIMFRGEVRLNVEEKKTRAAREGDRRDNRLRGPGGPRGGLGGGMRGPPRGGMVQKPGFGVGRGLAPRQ
With `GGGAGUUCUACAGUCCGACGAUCGUCCUGUGCUACACAUCGUAUGUACCGAAUCAAAUUUUUAAACCCCCAAACCCCCAAAAAAGUAUUAUGUUACGCCGUUCGGAUCUGCACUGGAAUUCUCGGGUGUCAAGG` the log2 enrichment was -0.409.
`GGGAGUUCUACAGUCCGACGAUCGGCAAGAGGAGGAACGACGUAGAAGAGAGGAAGAGAUGAUGAUUCGUCAACGUGAGAUGGAAGAACAAAUGAGGCGCCAAAGAGAGGAAAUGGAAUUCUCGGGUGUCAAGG` has a log2 enrichment of 1.2.
`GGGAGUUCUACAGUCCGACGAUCAGUCCUGUGCUACACAUCGUAUGUACCGAAUCAAACCCCCAAACCCAAACCCCCAAAAAAGUAUUAUGUUACGCCGUUCGGAUCUGCACUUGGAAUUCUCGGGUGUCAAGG` gave a log2 enrichment of -0.678.
For `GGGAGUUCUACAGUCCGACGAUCAGUCCUGUGCUACACAUCGUAUGUACCGAAUCGGGAAAGGGAAAGGGAAAAAAAGGGAAAGUAUUAUGUUACGCCGUUCGGAUCUGCACUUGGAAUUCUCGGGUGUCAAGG`, the log2 enrichment was -0.243.
For `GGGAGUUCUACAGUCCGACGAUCCUGUGCUACACAUCGUAUGUACCGAAUCGGGCCCCCCCGGCCCCCCCGGGCCCCCCCGGGGAAAGUAUUAUGUUACGCCGUUCGGAUCUGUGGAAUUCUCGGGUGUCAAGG`, the log2 enrichment was -0.78.
For `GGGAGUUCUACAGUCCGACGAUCUAACUUUAGAGGAGGAUCUGAUGGAUAUGGCAGUGGACGUGGAUUUGGGGUUGGCUAUAAUGGGUAUGGAGGAGGACCUGGAGGUGGCAAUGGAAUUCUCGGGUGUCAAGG`, the log2 enrichment was 0.268.
`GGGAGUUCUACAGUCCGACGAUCCCUGUGCUACACAUCGUAUGUACCGAAUCGGGGAAAGGGGAAAAAAAGGGGAAAAAGGGGAAAGUAUUAUGUUACGCCGUUCGGAUCUGCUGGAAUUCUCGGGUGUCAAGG` has a log2 enrichment of 0.0705.

Series 4 — method: universal PBM; molecule type: double-stranded DNA, one strand shown; medium: in vitro; tested at: 600 nM; reading: higher = stronger binding
Target: Sal-like protein 4, full length isoform A (SALL4, Homo sapiens, UniProt Q9UJQ4, residues 1-1053)
Sequence of UniProt Q9UJQ4 (whole entry, looked up): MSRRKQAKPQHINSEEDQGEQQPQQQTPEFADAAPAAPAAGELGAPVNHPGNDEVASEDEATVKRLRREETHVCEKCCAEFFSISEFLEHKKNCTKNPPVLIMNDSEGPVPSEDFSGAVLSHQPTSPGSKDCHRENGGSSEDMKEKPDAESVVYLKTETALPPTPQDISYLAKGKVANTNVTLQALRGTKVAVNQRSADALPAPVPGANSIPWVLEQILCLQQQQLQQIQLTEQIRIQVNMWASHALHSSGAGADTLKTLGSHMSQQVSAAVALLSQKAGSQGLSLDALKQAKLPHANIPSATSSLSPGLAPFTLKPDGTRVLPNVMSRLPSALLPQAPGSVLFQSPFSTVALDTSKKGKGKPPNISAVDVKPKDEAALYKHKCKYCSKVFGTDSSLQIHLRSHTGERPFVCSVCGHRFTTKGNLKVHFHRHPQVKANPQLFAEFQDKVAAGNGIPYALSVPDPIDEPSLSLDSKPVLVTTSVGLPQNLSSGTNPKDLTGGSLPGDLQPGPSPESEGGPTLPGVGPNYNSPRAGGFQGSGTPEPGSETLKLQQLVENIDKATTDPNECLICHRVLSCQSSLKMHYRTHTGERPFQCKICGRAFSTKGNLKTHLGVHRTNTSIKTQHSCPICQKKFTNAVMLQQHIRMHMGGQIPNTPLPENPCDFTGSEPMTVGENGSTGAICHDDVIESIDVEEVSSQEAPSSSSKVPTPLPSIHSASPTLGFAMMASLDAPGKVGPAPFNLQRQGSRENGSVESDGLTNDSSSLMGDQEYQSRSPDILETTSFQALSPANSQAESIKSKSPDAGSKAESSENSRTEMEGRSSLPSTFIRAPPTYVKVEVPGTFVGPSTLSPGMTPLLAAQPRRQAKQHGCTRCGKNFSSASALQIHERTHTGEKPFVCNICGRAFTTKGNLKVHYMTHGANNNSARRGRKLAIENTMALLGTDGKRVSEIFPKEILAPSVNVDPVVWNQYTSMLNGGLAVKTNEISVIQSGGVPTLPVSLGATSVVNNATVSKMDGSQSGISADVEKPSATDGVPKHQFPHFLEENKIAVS
Setting: 8-mer, flanks averaged, mean of replicates
`CTGGTCCA` gave an E-score of -0.247.
`AAAGGCGC` gave an E-score of -0.191.
With `GAATGTTA` the E-score was 0.149.
For `GGATGACA`, the E-score was 0.0167.
`CCTCGAGA` has an E-score of -0.18.
With `AACCCCTA` the E-score was -0.26.
For `GATACTGA`, the E-score was 0.0946.
With `CTTCCTCA` the E-score was -0.0287.
The E-score of `GCAGTCGC` is reported as -0.23.
For `AAGTCACC`, the E-score was -0.196.
`TTAACAAA` has an E-score of 0.324.
With `CGAACTTC` the E-score was -0.0148.
With `ACCATGGG` the E-score was -0.339.
With `AGTCCGAA` the E-score was 0.0276.
For `CCCAACTC`, the E-score was -0.0514.
With `AACTGACT` the E-score was -0.0675.
For `ATTCCCCA`, the E-score was -0.0769.
For `CCCAGAGA`, the E-score was -0.191.
The E-score of `TCCACAAA` is reported as 0.178.
For `ACGATGCT`, the E-score was -0.197.
With `AGCACGTG` the E-score was -0.0261.

Series 5 — method: aptamer microarray, sandwich; molecule type: DNA with 2'F-ANA; medium: in vitro; tested at: 200 nM; added: Cy3 exosite-II aptamer, 400 nM; reading: higher = stronger binding; strand: GGTTGGTGTGGTTGG
Target: Prothrombin, mature alpha-thrombin (F2, Homo sapiens, UniProt P00734)
Setting: whole 15-mer aptamer, many near background
`2'F-ANA at 1 3 4 7 9 14` — result for “mean fluorescence intensity”: 96.7 a.u.
For `2'F-ANA at 1 5 6 8 10 13 15`, “mean fluorescence intensity” read 45.7 a.u.
`2'F-ANA at 1 2 3 4 7 8 10 11 12 15`: “mean fluorescence intensity” 73.6 a.u.
`2'F-ANA at 1 2 5 6 8 11 12 13 14`: “mean fluorescence intensity” 48.3 a.u.
`2'F-ANA at 1 2 5 6 7 9 10`: “mean fluorescence intensity” 48.2 a.u.
`2'F-ANA at 1 4 6 8 10 13`: “mean fluorescence intensity” 69.5 a.u.
For `2'F-ANA at 2 5 6 8 10 11`, “mean fluorescence intensity” read 130 a.u.
`2'F-ANA at 1 3 4 6 9 13 15` — result for “mean fluorescence intensity”: 120 a.u.
Under “mean fluorescence intensity”, `2'F-ANA at 1 4 5 7 8 11 13 15` is recorded as 50.1 a.u.
Under “mean fluorescence intensity”, `2'F-ANA at 4 9 11 14` is recorded as 257 a.u.
Under “mean fluorescence intensity”, `2'F-ANA at 1 3 4 5 10 15` is recorded as 57.6 a.u.
`2'F-ANA at 1 2 3 6 10 12 13 14`: “mean fluorescence intensity” 51.5 a.u.
For `2'F-ANA at 3 5 6 7 8 9 11 12`, “mean fluorescence intensity” read 206 a.u.
Under “mean fluorescence intensity”, `2'F-ANA at 6 9 11 12 13 15` is recorded as 452 a.u.
Under “mean fluorescence intensity”, `2'F-ANA at 1 2 4 6 8 10 11 12` is recorded as 55.3 a.u.
Under “mean fluorescence intensity”, `2'F-ANA at 1 5 6 12 13 14 15` is recorded as 49 a.u.
`2'F-ANA at 1 2 8 10 11 12 13 14` — result for “mean fluorescence intensity”: 52.7 a.u.
For `2'F-ANA at 1 3 4 9 10 11`, “mean fluorescence intensity” read 95.2 a.u.

Repeated from above (series 3):
With `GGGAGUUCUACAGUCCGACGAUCGUCCUGUGCUACACAUCGUAUGUACCGAAUCAAAUUUUUAAACCCCCAAACCCCCAAAAAAGUAUUAUGUUACGCCGUUCGGAUCUGCACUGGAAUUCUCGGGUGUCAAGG` the log2 enrichment was -0.409.
`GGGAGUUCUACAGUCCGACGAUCGGCAAGAGGAGGAACGACGUAGAAGAGAGGAAGAGAUGAUGAUUCGUCAACGUGAGAUGGAAGAACAAAUGAGGCGCCAAAGAGAGGAAAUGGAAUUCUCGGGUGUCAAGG` has a log2 enrichment of 1.2.
`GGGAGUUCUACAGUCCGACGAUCAGUCCUGUGCUACACAUCGUAUGUACCGAAUCAAACCCCCAAACCCAAACCCCCAAAAAAGUAUUAUGUUACGCCGUUCGGAUCUGCACUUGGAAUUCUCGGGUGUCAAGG` gave a log2 enrichment of -0.678.
For `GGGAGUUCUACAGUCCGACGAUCAGUCCUGUGCUACACAUCGUAUGUACCGAAUCGGGAAAGGGAAAGGGAAAAAAAGGGAAAGUAUUAUGUUACGCCGUUCGGAUCUGCACUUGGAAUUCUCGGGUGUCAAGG`, the log2 enrichment was -0.243.
For `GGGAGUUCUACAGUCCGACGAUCCUGUGCUACACAUCGUAUGUACCGAAUCGGGCCCCCCCGGCCCCCCCGGGCCCCCCCGGGGAAAGUAUUAUGUUACGCCGUUCGGAUCUGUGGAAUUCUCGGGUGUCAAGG`, the log2 enrichment was -0.78.
For `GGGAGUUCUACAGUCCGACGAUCUAACUUUAGAGGAGGAUCUGAUGGAUAUGGCAGUGGACGUGGAUUUGGGGUUGGCUAUAAUGGGUAUGGAGGAGGACCUGGAGGUGGCAAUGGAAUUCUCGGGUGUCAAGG`, the log2 enrichment was 0.268.
